Measurements of several laboratories.
Each numbered part is a random draw from the data of one study; scales do not carry over between parts.

Series 1
Target: RING finger protein unkempt homolog, zinc fingers 1-6, SBP tag (UNK, Homo sapiens, UniProt Q9C0B0, residues 30-357)
Sequence of UniProt Q9C0B0 (30-357, looked up): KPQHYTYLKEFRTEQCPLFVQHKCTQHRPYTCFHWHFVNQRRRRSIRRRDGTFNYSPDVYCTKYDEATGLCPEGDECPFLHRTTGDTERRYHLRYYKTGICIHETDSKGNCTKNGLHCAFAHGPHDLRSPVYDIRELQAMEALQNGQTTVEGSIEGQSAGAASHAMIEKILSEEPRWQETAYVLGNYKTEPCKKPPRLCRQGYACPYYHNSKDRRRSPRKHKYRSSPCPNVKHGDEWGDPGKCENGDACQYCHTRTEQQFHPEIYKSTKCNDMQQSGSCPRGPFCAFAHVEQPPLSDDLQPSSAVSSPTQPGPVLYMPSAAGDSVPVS
Method: RNA Bind-n-Seq
Form: RNA
Medium: in vitro
Tested at: 100 nM
Setting: RNA with constant flanks, vertebrate orthologous sites, ends assumed
Relative to: input RNA pool
Reading: higher = stronger binding
Strand	bound/input enrichment [ratio]
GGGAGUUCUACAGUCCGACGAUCCUUAAUUAGAAGGUAGCAUACGUUUCAUAAAGAAGAGUCUUUAUAAUUUUAUUUGUCAUAUAGUAUUUUGGAAUUUGUAUAAUGAGGAUGUUUAGAAGCCGUAUCAAUGGCUUUUUUAACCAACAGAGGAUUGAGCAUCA	0.73
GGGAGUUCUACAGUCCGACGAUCAGGCUUAGAAACUGGAAUGGAACCAGAAUGUAGCCCAAGGAAAGCAAACAUGAAAUGACCAAAUGACCACCACAUACAGUACAACUCAAUAUGAAUGCUGCCACCCAGGGUAGUGACUUGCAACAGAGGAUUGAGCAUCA	0.313
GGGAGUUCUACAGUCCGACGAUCGUUAGGUCAUGACCCUUAUAGGCUAGGUCAUGAUGCCUAUAGAUUAGGGCAAGACCCUUAUAGAUUAGGCCAUGAUCCCUACAGACUAACUCCUGAUCCCUAUAGGAUGUCACCUAGACCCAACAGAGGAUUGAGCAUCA	0.404
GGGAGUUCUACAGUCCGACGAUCAAGAUGGUGGUUGUACAUUAUUUCAUUUAGAAAAUAUAAACUUUAAUUUUGUUUUGAAGUUAGGUGUUAAACUGGAAUAGCGAUCAUACCCCGGAUAAUGGGGGCAGUUGUGCCCUUCCCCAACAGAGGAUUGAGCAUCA	0.953
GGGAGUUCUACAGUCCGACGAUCGCAUAUGCCGCUAUCACCAGAAGCAAACUACCACUGUUUUCAUGUCAUUCUGAGCCUUUAGUGUUUCCCCUACCCUUUCCACGACUGUCCAUGGGAUAGUUUUCCUUCUGACACUUGAUUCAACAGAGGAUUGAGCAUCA	0.988
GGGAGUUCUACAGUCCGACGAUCAUCCCAGUUUGUAUGCACAUUAUUCACAUUCCUAUCUGUUGUGUUUGCAGAAAUGACAUUUUACCCUUUUCUAAGGGUUGCGUUUUGAUUUUCAUAUUAUUUGGUUGCAUGAAGUUGCCCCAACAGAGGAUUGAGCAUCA	0.379
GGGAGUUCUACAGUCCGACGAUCGCCCACCCAGCUCACACCAGCAGCUUGCUCUCACAGUGCACAGCUUACAAAGGAACAGUCUCGUGGGAUUUUUAUUUUAAUUUAAAACCUGCUUUUCCCAAAACUGAUCAAGAAGCUACGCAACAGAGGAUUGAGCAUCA	0.492
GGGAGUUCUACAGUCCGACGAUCGCAUACCCCAUCACUGUGAUAUUUAAAAUAUGCACAGUCCUAAUUCUUUCUAAAUGAUCCUAUUAUUUUUCUAGCUGUAUCUUUGUAUCUCAUACUGUUAUUUAUCAGUUUUGUUCCCCACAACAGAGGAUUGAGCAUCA	1.88
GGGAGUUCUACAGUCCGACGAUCCAUGUAGUUUGUUUUUAAUUUCAAGCAAAUCUUCUUGUACUUGAAUGUGCCCUGUUUUGUUAGCACACCUAGACUUGCUGUAACUGUACUCAUGUCCCAGUAUGUACGUUCUUUCUAUGACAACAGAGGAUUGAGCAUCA	1.12
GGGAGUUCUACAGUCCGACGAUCGGGUGACUUUGGACGCCCUCAUACAAGGAGCAGAGAGUCCUAGGUUCUGGGCCUGCCGGCUUCGUUUCUUCCUUCCGGACCUGAGGCCUCGUCCACAAACAUGCUUCGCCAGAUCCUCAGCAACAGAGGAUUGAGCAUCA	0.239
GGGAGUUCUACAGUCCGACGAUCUUCAGGCACAACUGACUGGUUCACAGCAUUCCUUACACAGUUAUCUAUCAAAUGCAAGUGGGGUUAAUUUUCAGGAAACAAGCAGGCAGUCAUCUUUAUCCUGUAGCCCAAUUGGAGAGUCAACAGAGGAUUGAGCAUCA	1.07

Series 2
Target: RNA binding protein fox-1 homolog 2, RRM domain, GST-SBP tag (RBFOX2, Homo sapiens, UniProt O43251-10, residues 100-194)
Method: RNA Bind-n-Seq
Form: RNA
Medium: in vitro
Tested at: 365 nM
Setting: natural RNA segment, single round, ends assumed
Relative to: no-protein control
Reading: higher = stronger binding
Residues (chain): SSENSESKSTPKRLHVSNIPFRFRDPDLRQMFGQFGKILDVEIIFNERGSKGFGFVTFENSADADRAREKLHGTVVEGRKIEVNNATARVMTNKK
Strand	RBNS enrichment (R)
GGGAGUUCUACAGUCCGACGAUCACUAGCCUAAACAUUCUCAAAUGUUUGAGAUUCAAGUGAAUGGAAGGAAAACCACAUGCCUUUAAAACUAAACUGUAAUAAUUACCUGGCUAAUUUCAGCUAAGCCUUCAUGGAAUUCUCGGGUGCCAA	0.524
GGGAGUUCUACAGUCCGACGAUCACACACAUCUUGCUAGACUAGUAUAAAAAUCAUUGGGUAAUUGUUGGUUCUAAUGACCUGAAAGGUGUUCAGUUUUUGUUCUUGGUUUUGUUUUGUUUUUGAUUUCUUGGUGGAAUUCUCGGGUGCCAA	0.829
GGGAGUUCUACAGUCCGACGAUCGUCCUUCUUAGAGAUGAAGAAAUAAUAAGGAAACAUCUUUCAUAGCCACAUUAAAUAAGAGAAACUGAUAUACAUUAUUUUUUUCUUUUUAAAGAUGACUUAUAAGAACCUGGAAUUCUCGGGUGCCAA	0.485
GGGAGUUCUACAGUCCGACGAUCACGGUUUCCAAUGCGCCGUCACCAUCUCCACCUGCCACCAAACCACCAGCAGAGUAGCCGCCGCUGCUGUGAGCCUGGGGACGACAUGGCAGGCUGGUCCCCCUCCGUGAUGGAAUUCUCGGGUGCCAA	0.269
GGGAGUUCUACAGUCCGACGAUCUCAUAUAUACGUUCAUCUUUCAAGUCAGAGCAAUGAGUUGGGAAAAGAGGUGGCAUUUCUGAUCGGAUAAUGGAAUACUCUCAUUUAUUUUAUGACAUUCUCUGUCUACUUGGAAUUCUCGGGUGCCAA	0.237
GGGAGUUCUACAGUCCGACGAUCUGGCGUACAGUGGUACGAUCUCAGCUCACUGCAUCCUCUGCCUCCCCCAGUUCAAGUGAUUCUUCUGCCUCGGCCUCCUGAGUAACUGGGACUACAGGCGCCUACCACCAUGGAAUUCUCGGGUGCCAA	1.29
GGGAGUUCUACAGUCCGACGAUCCAUUCCAGAGUGCAUCAGAACUGUCAUCCCUUCCAGGACCUUCUCAGGAGUAACACAUCAGGUAUGUCAUCAGCGCUGGGAACCGUGAACGCCAAGGACACUCGCCACUAUGGAAUUCUCGGGUGCCAA	0.358
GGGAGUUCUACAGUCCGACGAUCAGCAUAGGGUCACUUUGCCAUUAUGCAAAUGGAGAUAAAAGCAAUUCUGACUGUCCAGGAGCUAAUCUGACCGUUCUAUUGUGUGGAUGACCACAUAAGAAGGCAAUUUUUGGAAUUCUCGGGUGCCAA	0.312
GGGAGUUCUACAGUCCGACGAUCUCGCUUGGAAGUGGUGGCCAUGUGGCCGUUAUACAGCCUUUGCUGAUAUGGCCCUCAUCGUCGUGUAAUGUUUGUGCACCUCCCUGCUGUGCAGGCAGCUUGGAGUGCAGUGGAAUUCUCGGGUGCCAA	1.32
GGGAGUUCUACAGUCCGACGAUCGCUGCCACCACCCUCCUGUCUGCCUCUUCAAAGUCUCCUGUGACAUUUUUUCUUUGGUCAGAAGCCAGGAACUGGUGUCAUUCCUUAAAAGAUACGUGCCGGGGCCAGGUUGGAAUUCUCGGGUGCCAA	0.397
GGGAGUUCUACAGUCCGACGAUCAGGCUCCAAGGAGCAUUGGAGAGAAUGCCCCUUUCUGGGCUUGAUGUCUUGGUUUUGGUUUAAUACCAAAUUUCUCUUGGUCUUGGUUUAAUACCCGACUCCUCCCAAAUUGGAAUUCUCGGGUGCCAA	0.411
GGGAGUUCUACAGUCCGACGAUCCCAUUGUUGAUGUGUUGUGGGACAUUUUUAUAUAUUGAACCUGGGUUCUUUUUUGAUCUGUUUUGGUCGUCCCUCCAUUCAACUGCAUCUUUUUUUUUUUUAAAAACAAAUGGAAUUCUCGGGUGCCAA	1.43

Series 3
Target: PABPC1L2, full length, GST fusion (mouse, UniProt A0ABA7IW68)
Method: RNAcompete
Form: RNA
Medium: in vitro
Tested at: 20 nM
Setting: 7-mer, probes averaged, single round
Relative to: mean of 7-mers
Reading: higher = stronger binding
Residues (chain): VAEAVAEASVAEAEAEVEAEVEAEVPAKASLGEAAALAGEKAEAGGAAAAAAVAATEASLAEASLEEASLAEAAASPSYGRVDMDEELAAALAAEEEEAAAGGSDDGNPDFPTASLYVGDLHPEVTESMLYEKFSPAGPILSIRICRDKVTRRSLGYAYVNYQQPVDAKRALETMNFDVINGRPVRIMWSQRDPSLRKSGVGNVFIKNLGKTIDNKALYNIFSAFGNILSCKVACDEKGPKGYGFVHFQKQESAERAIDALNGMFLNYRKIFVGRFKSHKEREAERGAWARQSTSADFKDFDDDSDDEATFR
Strand	7-mer Z-score
GUUGCUG	-0.206
CUAUAUG	-0.18
GACUGAG	-0.0319
AGUAUGU	-0.0156
CGAUAGA	0.037
CCUCGCG	-0.44
CCCGUUU	-0.396
UCGGCCG	-0.157
CCCUCUC	-0.456
CAGCUCC	-0.233
AACGUGC	0.0515
CAGCAUC	-0.166
UGGGUAU	-0.0699
UGCGGCU	-0.0699
GCGACAA	0.323
UCACCAU	-0.0699
UUGUAUU	-0.193
UGCCAUA	-0.175
CAUUUCG	-0.353
CGGAGGC	-0.0138
GAUAGAA	0.37
CGACUGA	0.113
UUGGGGA	0.149

Series 4
Target: Interferon regulatory factor 7, full length, phosphomimetic (IRF7, Homo sapiens, UniProt Q92985, residues 1-503, S101K/S471D/S472D/S475D/S476D/S477D/S483D/S484D/S487D)
Method: protein-binding microarray
Form: double-stranded DNA, one strand shown
Medium: in vitro
Tested at: 250 nM
Setting: 60-bp whole probe
Together with: salmon DNA 0.4 mg/ml
Relative to: random background probes
Reading: higher = stronger binding
Shared flanks, not repeated: GCCTAGCAC … GTCTTGATTCGCTTGACGCTGCTG
Residues (chain): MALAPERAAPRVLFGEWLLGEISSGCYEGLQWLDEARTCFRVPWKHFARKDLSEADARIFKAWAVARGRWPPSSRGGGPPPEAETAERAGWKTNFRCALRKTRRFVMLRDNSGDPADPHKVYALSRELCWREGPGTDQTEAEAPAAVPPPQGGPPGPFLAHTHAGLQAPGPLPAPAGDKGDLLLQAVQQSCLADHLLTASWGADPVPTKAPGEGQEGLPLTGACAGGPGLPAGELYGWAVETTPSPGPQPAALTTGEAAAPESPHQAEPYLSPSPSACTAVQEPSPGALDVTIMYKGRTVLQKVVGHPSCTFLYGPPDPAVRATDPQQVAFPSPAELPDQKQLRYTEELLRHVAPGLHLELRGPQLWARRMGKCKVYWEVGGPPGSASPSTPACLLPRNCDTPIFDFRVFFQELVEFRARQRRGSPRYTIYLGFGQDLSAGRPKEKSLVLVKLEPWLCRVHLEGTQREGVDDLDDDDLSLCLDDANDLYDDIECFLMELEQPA
Strand	log fluorescence [z-score]
TTAGACTTCGGGTATCGATTAGTGCTA	0.52
TCAGATATCGGGTATCGATTAGTGCTA	0.647
GACGGTTTCGGTTCCGGGAGGTGCTAG	13
TTAGGACTGCATCTCCTTTAGTGCTAG	-0.0439
TTAGGTTTCGTTATCGGTTAGTGCTAG	11.4
TCCCCTCTCATTCCAATTCTGTGCTAG	0.638
TTAGGACTGGAGTATCGGTTAGTGCTA	0.132
CTCTACATGTGTTTAAGAATGTGCTAG	0.0223
TTAGGACTGCTTATGCTTTAGTGCTAG	-0.301
TTAGATCTCAGTATCAATTAGTGCTAG	-0.00614
TTAGGTATCAGTTTCGATTAGTGCTAG	9.07
TTAGCTCTCAGTATCGATTAGTGCTAG	0.788
GACGGTTTCGGGACTGAGGACGTGCTA	3.69
TTTTAAAATGGACACTGTACAGTGCTA	0.163
TTAGGGATCGGTTTCGGTTAGTGCTAG	9.83
TTAGGTATTCTTCTCCTTTAGTGCTAG	0.205
GAATATATGTATATATGTGTGTGCTAG	0.0561
TCAACTCTCTACATGGGACTGTGCTAG	0.479
GACGAACTGAGTTGCGAGACGTGCTAG	-0.57
ATCTGCAGCTGACTACACACGTGCTAG	-0.79

Repeated from above (series 4):
Strand	log fluorescence [z-score]
TTAGCTCTCAGTATCGATTAGTGCTAG	0.788
TTAGGGATCGGTTTCGGTTAGTGCTAG	9.83
TCAACTCTCTACATGGGACTGTGCTAG	0.479
TTAGGACTGGAGTATCGGTTAGTGCTA	0.132
TTAGGACTGCTTATGCTTTAGTGCTAG	-0.301
TTAGGACTGCATCTCCTTTAGTGCTAG	-0.0439
TTTTAAAATGGACACTGTACAGTGCTA	0.163
TCCCCTCTCATTCCAATTCTGTGCTAG	0.638
